Assay results gathered from unrelated publications.
Protocols differ between the studies behind these lines. Numbers after ± are the reported error.

SMILES	target	test	test system	setting	IC50
CN[C@@H]1[C@H](O)[C@H](NC)[C@H]2O[C@]3(O)[C@H](O[C@@H]2[C@H]1O)O[C@H](C)C[C@@]3(O)CNCCc1cccs1	Mycolicibacterium smegmatis ribosome	cell-free translation			1640 ± 360 nM
Oc1ccc(-c2cc(-c3ccc(OCCN4CCCCC4)cc3)n(-c3ccc(O)cc3)n2)cc1	TLR9	TNF-alpha production, antagonist, ELISA	RAW264.7	6 h, together with: CpG-DNA 1 µM	1470 ± 250 nM
CCCCC/C=C/C(=O)CCc1ccc(O)c(OC)c1	mouse mAb 1-D6	antibody binding, indirect competitive ELISA		together with: coating antigen 5-OVA	0.0718 µg/mL
CN[C@@H]1[C@H](O)[C@H](NC)[C@H]2O[C@]3(O)[C@H](O[C@@H]2[C@H]1O)O[C@H](C)C[C@@]3(O)CNCCc1ccccc1	Mycolicibacterium smegmatis ribosome	cell-free translation			930 ± 390 nM
C#CCOCCOCCOCCOCCn1cc(C(ONC(=O)/C=C/C(C)=C/C2(C)Oc3cc(N(C)C)ccc3C2=O)(c2ccc(C)cc2)c2ccc(C)cc2)nn1 (stereo not drawn)	HDAC	histone acetylation, inhibitor, BRET	MeT-5A	16 h	500 nM
COc1cc(CCC(C)=O)ccc1O	mAb 5-D8	antibody binding, indirect competitive ELISA		together with: coating antigen hapten 3-OVA	> 4 µg/mL
CN[C@@H]1[C@H](O)[C@H](NC)[C@H]2O[C@]3(O)[C@H](O[C@@H]2[C@H]1O)O[C@H](C)C[C@@]3(O)CNCCc1nccs1	Mycolicibacterium smegmatis ribosome	cell-free translation			970 ± 370 nM
O=C(Nc1ccc(S(=O)(=O)Nc2nccs2)cc1)c1cc(-c2ccco2)nc2ccccc12	ChREBP human	reporter gene, inhibitor, LPK promoter luciferase	HepG2	together with: high glucose	~1000 nM
Oc1ccc(-c2cc(-c3ccc(OCCCN4CCCCC4)cc3)n(-c3ccc(O)cc3)n2)cc1	TLR9	TNF-alpha production, antagonist, ELISA	RAW264.7	6 h, together with: CpG-DNA 1 µM	1440 ± 270 nM
CN[C@@H]1[C@H](O)[C@H](NC)[C@H]2O[C@]3(O)[C@H](O[C@@H]2[C@H]1O)O[C@H](C)C[C@@]3(O)CNCCc1ccc(F)cc1	Mycolicibacterium smegmatis ribosome	cell-free translation			1010 ± 210 nM
CCc1c(-c2ccc(O)cc2)nn(-c2ccc(O)cc2)c1-c1ccc(OCCN2CCCCC2)cc1	TLR9	TNF-alpha production, antagonist, ELISA	RAW264.7	6 h, together with: CpG-DNA 1 µM	2850 ± 50 nM
COC(=O)c1ccc2c(c1)NC(=O)/C2=C(\Nc1ccc(N(C)C(=O)CN2CCN(CCCCNC(=O)CCc3cn(CCCCN4C[C@@H]5C[C@H]4C(=O)N[C@@H](CC(C)C)C(=O)N[C@@H](CCCNC(=N)N)C(=O)NCC(=O)N[C@@H](CC(=O)O)C(=O)N[C@@H](CC(C)C)C(=O)N5)nn3)CC2)cc1)c1ccccc1	integrin αVβ6 (mouse)	cell adhesion to fibronectin	L929	30 min preincubation	< 1000 nM
